Published values gathered from unrelated publications.
Lines come from different studies, so protocols differ. ± marks the error that the study gave.
Seed linoleate 13S-lipoxygenase-1: Seed linoleate 13S-lipoxygenase-1 (Glycine max, UniProt P08170)
Chain of UniProt P08170 (whole entry, looked up): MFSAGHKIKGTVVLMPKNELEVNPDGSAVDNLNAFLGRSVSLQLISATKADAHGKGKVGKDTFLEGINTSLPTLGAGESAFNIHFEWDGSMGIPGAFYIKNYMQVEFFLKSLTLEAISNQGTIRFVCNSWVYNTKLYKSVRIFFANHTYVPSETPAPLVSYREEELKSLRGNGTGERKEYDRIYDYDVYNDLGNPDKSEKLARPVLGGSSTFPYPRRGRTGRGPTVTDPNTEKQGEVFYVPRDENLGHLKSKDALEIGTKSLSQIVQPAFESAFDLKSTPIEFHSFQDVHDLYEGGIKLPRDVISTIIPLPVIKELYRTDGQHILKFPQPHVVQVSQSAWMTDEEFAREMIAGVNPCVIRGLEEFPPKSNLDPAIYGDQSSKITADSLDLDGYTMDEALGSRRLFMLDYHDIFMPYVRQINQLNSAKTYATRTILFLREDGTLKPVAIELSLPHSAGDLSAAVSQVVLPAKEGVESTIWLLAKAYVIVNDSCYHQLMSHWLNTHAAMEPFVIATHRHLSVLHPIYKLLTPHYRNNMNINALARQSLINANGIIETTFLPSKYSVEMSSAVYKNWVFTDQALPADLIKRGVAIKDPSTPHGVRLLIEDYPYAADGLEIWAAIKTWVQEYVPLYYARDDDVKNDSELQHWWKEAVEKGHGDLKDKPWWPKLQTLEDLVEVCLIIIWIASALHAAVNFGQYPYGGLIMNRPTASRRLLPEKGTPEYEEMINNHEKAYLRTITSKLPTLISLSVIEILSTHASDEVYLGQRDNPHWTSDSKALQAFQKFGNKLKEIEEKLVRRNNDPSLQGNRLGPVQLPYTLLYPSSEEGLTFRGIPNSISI
MAPK14: Mitogen-activated protein kinase 14 (MAPK14, Homo sapiens, UniProt Q16539)
Chain of UniProt Q16539 (whole entry, looked up): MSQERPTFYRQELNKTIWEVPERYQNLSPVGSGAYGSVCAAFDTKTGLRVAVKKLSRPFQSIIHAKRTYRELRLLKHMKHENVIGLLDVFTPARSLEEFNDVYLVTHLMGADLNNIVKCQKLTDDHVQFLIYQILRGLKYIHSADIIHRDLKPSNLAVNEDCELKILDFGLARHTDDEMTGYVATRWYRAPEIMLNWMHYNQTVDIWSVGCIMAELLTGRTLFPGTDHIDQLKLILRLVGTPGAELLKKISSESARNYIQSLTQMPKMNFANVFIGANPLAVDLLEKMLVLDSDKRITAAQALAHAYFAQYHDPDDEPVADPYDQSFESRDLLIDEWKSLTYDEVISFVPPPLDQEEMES
DPP4: Dipeptidyl peptidase 4 (DPP4, Sus scrofa, UniProt P22411)
Chain of UniProt P22411 (whole entry, looked up): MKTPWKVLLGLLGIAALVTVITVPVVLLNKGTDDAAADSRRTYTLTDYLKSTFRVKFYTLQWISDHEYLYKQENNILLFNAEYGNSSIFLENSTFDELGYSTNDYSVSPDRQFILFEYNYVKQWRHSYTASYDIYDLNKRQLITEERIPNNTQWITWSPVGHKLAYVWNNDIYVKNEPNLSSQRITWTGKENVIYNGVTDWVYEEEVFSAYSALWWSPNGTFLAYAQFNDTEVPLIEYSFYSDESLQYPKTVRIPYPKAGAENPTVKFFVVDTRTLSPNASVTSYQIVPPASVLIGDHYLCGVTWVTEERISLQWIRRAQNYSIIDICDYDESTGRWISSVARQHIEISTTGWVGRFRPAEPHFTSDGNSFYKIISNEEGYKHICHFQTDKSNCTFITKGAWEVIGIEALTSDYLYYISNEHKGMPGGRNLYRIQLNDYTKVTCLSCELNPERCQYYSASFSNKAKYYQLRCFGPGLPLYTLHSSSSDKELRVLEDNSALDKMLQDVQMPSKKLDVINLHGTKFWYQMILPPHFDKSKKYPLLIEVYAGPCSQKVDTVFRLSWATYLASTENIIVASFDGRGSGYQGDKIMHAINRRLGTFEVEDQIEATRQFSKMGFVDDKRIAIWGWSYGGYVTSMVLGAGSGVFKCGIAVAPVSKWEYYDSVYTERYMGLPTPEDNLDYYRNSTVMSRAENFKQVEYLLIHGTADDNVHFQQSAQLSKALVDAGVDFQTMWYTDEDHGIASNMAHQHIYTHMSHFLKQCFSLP
Chain of UniProt Q9NUW8 (whole entry, looked up): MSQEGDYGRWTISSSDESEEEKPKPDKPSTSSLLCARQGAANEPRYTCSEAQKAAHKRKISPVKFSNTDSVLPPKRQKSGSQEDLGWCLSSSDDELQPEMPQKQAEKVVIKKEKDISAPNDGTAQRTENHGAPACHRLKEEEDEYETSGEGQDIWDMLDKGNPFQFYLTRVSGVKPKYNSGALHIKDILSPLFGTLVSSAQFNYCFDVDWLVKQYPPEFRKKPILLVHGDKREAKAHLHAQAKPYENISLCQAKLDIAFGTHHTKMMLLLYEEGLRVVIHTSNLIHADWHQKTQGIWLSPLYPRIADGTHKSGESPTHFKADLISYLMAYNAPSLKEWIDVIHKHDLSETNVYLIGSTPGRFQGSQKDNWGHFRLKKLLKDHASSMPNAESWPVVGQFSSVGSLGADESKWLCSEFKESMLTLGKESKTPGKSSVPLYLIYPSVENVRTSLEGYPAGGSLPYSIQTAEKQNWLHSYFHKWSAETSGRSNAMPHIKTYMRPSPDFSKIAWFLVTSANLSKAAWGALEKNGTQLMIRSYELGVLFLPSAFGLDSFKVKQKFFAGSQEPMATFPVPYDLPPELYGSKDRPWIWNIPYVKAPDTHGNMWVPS
Chain of UniProt Q9BRS2 (whole entry, looked up): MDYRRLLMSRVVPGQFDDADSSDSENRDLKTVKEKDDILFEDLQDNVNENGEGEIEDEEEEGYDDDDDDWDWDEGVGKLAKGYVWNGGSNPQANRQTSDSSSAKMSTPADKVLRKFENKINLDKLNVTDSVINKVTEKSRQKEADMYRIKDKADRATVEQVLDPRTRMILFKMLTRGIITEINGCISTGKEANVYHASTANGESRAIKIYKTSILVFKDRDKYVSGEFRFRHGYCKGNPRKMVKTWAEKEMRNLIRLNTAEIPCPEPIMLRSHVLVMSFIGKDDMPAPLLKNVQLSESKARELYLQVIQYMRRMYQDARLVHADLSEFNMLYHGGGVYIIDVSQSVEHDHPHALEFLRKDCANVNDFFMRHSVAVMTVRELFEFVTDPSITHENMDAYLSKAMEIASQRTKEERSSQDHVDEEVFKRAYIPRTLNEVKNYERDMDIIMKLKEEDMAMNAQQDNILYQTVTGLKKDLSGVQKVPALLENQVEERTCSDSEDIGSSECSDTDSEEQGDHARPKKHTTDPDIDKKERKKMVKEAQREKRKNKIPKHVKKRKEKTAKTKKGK
Chain of UniProt Q16881 (whole entry, looked up): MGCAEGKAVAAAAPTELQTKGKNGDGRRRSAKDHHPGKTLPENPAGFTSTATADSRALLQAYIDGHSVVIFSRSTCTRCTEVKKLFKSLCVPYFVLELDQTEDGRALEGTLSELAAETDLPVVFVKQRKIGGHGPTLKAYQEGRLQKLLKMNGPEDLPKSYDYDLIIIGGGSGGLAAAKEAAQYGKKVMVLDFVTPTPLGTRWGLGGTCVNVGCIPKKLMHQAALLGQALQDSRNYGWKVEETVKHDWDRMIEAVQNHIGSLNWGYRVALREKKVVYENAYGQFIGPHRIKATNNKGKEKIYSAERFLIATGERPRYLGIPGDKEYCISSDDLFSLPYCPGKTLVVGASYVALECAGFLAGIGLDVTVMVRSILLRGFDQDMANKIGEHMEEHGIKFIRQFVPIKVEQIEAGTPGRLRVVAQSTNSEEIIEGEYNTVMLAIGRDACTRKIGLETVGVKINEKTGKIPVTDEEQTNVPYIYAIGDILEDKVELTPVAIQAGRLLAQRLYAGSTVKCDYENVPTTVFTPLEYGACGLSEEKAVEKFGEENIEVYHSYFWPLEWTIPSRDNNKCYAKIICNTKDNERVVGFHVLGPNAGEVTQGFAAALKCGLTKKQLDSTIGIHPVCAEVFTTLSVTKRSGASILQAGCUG
Chain of UniProt P37288 (whole entry, looked up): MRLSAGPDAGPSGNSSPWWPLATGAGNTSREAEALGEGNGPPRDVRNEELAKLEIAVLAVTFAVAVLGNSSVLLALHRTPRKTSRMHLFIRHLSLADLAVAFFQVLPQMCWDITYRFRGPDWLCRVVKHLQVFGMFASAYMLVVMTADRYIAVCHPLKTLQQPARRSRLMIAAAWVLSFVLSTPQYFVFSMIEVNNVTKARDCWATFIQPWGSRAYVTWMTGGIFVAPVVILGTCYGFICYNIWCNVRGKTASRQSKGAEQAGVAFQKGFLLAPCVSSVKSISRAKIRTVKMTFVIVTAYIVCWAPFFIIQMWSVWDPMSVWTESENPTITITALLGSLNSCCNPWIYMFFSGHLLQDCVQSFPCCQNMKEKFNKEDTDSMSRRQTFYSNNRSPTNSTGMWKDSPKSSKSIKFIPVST
Chain of UniProt Q920B6 (whole entry, looked up): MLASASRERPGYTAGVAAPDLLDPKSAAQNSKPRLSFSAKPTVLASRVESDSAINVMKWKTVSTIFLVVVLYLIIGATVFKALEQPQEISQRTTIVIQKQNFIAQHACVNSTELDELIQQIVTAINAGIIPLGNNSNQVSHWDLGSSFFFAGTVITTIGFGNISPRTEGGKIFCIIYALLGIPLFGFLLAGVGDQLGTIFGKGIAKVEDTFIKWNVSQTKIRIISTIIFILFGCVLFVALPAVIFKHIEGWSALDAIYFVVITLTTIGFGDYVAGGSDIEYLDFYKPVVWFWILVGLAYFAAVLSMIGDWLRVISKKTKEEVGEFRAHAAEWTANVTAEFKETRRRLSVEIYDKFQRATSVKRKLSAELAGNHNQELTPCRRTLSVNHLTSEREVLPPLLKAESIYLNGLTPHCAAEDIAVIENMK
Chain of UniProt P14598 (whole entry, looked up): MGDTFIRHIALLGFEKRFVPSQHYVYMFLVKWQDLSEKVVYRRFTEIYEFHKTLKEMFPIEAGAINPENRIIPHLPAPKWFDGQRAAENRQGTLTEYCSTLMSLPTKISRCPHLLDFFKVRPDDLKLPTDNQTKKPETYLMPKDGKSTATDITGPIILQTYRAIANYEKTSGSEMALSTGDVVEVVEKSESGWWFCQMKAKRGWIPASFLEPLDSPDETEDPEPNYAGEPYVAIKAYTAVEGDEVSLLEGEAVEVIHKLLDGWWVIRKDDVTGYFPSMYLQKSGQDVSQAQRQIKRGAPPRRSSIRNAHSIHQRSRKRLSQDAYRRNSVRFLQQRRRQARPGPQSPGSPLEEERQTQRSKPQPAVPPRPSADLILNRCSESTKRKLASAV

SMILES	target	assay	system	conditions	how to read	inhibition
COc1cc(/C=C/C(=O)CC(C)=O)ccc1O	TXNRD1 (Homo sapiens, UniProt Q16881)	enzyme activity	MCF7	25 µM, 48 h		55%
CCn1c(SC(C)C(=O)Nc2cccc(C)c2)nnc1C1CCN(C(=O)Nc2ccccc2)CC1 (stereo not drawn)	Seed linoleate 13S-lipoxygenase-1	enzyme activity, inhibitor		250 µM		89.6%
Cc1cc(O)c2c(c1)C(=O)c1cc3oc(=O)cc(-c4ccc(O)cc4)c3c(O)c1C2=O	mushroom tyrosinase	enzyme activity		25 µg/mL, added: L-DOPA		25.3 ± 0.21%
CC(C)c1csc2nc[nH]c(=O)c12	MAPK14	primary fragment screen		0.25 mM, added: ATP 10 µM		36%
Cc1c2c(cc3oc(=O)cc(-c4ccc(O)cc4)c13)C(=O)c1cccc(O)c1C2=O	mushroom tyrosinase	enzyme activity		25 µg/mL, added: L-DOPA		9.64 ± 0.64%
Cc1cc(NC(=O)[C@H](O)c2cc(F)cc(F)c2)ccc1-c1cnc(N)c(C(=O)NC(C)C)c1	RIOK1 (Homo sapiens, UniProt Q9BRS2)	cell-free assay, competition with immobilised ligand		1 µM		> 50%
CCOC(=O)c1cc2c(N)c(C(=O)OC)sc2nc1C	Urea transporter 2 (SLC14A2, Homo sapiens, UniProt Q15849)	urea transport, inhibitor	MDCK expressing SLC14A2	concentration not given, added: 10 µM forskolin		35.4%
COc1cc(OC)c2c(c1)C(=O)c1cc3oc(=O)cc(-c4ccc(Cl)cc4)c3c(O)c1C2=O	mushroom tyrosinase	enzyme activity		25 µg/mL, added: L-DOPA		27.71 ± 0.23%
CC(C)C[C@H](NC(=O)[C@H](CCC(N)=O)NC(=O)[C@H](CCCNC(=N)N)NC(=O)[C@H](CCCNC(=N)N)NC(=O)[C@@H](NC(=O)[C@H](CCCNC(=N)N)NC(=O)[C@@H](NC(=O)[C@H](CO)NC(=O)[C@@H](N)CS)[C@@H](C)O)C(C)C)C(N)=O	NCF1 (Homo sapiens, UniProt P14598)	Nox2 oxidase activity, inhibitor, cytochrome c reduction	COS-Nox2 cell-free system	10 µM		~85%
NCCCC[C@H](NC(=O)[C@H](CCCCN)NC(=O)[C@@H]1CCCN1C(=O)CNCCCN(CC[C@H](N)C(=O)O)C[C@H]1O[C@@H](n2cnc3c(N)ncnc32)[C@H](O)[C@@H]1O)C(N)=O	METTL5, with Trm112 (Homo sapiens, UniProt Q9NRN9)	methyltransferase activity		1 µM		no inhibition
COc1cc(OC)c(C(=O)/C=C/c2ccccc2)c(O)c1O	DPP4	enzyme activity, inhibitor, absorbance		50 µg/mL		97.4%
NCC(=O)NCC(=O)NCC(=O)NCC(=O)NCC(=O)NCC(=O)NCCCC[C@H](NC(=O)[C@@H]1CCCN1C(=O)[C@@H]1CSSCCC(=O)N[C@@H](Cc2ccc(O)cc2)C(=O)N[C@@H](Cc2ccccc2)C(=O)N[C@@H](CCCC(N)=O)C(=O)N[C@@H](CC(N)=O)C(=O)N1)C(=O)NCC(N)=O	AVPR1A (Homo sapiens, UniProt P37288)	ligand displacement, radioligand		10 µM		> 50%
COc1c2c(cc3oc(=O)cc(-c4ccccc4)c13)C(=O)c1cc(C)cc(O)c1C2=O	mushroom tyrosinase	enzyme activity		100 µg/mL, added: L-DOPA		46.99 ± 0.21%
O=C1C[C@H](c2ccc(O)c(O)c2)c2c(cc(O)c3c2O[C@H](c2ccc(O)c(O)c2)[C@H](O)C3)O1	DPP4	enzyme activity, inhibitor, absorbance		50 µg/mL		41.3%
COc1c2c(cc3oc(=O)cc(C)c13)C(=O)c1cc(C)cc(O)c1C2=O	mushroom tyrosinase	enzyme activity		50 µg/mL, added: L-DOPA		31.33 ± 0.17%
OC[C@H]1[C@@H](O)[C@@H](O)CN1Cc1ccncc1	Alpha-mannosidase (Canavalia ensiformis, UniProt C0HJB3)	enzyme activity, inhibitor, absorbance		2 mM		9%
Cc1ccccc1CN1CCN(C(=O)c2cccnc2)CC1	MAPK14	primary fragment screen		0.25 mM, added: ATP 10 µM		40.5%

SMILES	target	assay	system	conditions	how to read	inhibition
Cc1c2c(cc3oc(=O)cc(-c4ccccc4)c13)C(=O)c1cccc(O)c1C2=O	mushroom tyrosinase	enzyme activity		100 µg/mL, added: L-DOPA		63.86 ± 0.45%
CCn1c(SC(C)C(=O)Nc2ccc(C)c(C)c2)nnc1C1CCN(C(=O)Nc2ccccc2)CC1 (stereo not drawn)	Seed linoleate 13S-lipoxygenase-1	enzyme activity, inhibitor		250 µM		88.5%
COc1ccccc1CCn1c2c(c3c1-c1ccccc1C3=O)C(=O)CCC2	ABCC1 (Homo sapiens, UniProt P33527)	calcein efflux	HEK293 expressing MRP1	2 µM	reference: verapamil 35 µM as 100%	inhibited
CCCCCC[N+](CCCCCC)(CCCCCC)CCCCCC	Kcnk2 (Rattus norvegicus, UniProt Q920B6)	ion current, inhibitor		1 µM, oocytes		~50%
Cc1cc(O)c2c(c1)C(=O)c1cc3oc(=O)cc(C)c3c(O)c1C2=O	mushroom tyrosinase	enzyme activity		25 µg/mL, added: L-DOPA		12.1 ± 0.74%
COc1cc(Oc2c(OC)cc(C)c(Br)c2O)c(C(=O)O)c(C)c1O	Gag-Pol polyprotein, reverse transcriptase (gag-pol, Human immunodeficiency virus 1, UniProt P03366)	enzyme activity, inhibitor, PicoGreen fluorescence		10 µM		13.4 ± 0.8%
COc1cc(C(=O)NC2CCC(N3CCN(CC4CCC5(CCCC5)C4)CC3)CC2)c(F)cc1Nc1ncc2c(n1)N(C1CCCC1(F)F)CC(F)(F)C(=O)N2C (stereo not drawn)	EPHA4 (Homo sapiens, UniProt P54764)	cell-free assay, TR-FRET		10 µM		0.45%
O=C1c2ccccc2C(=O)c2c1ccc1c2C(C(=O)NCc2ccccc2)C(=O)C1c1ccccc1 (stereo not drawn)	mushroom tyrosinase	enzyme activity, inhibitor, spectrophotometry		50 µg/mL, added: L-DOPA substrate		42 ± 0.46%
Cc1cc(O)cc2c1C(=O)c1c(cc3oc(=O)cc(-c4ccc(O)cc4)c3c1O)C2=O	mushroom tyrosinase	enzyme activity		50 µg/mL, added: L-DOPA		13.2 ± 0.66%
O=C(O)c1ccc(Nc2c(-c3ccc(CON=Cc4ccc(-c5ccccc5)cc4)cc3)nc3cc(-c4ccccc4)ccn23)cc1	TDP1 (Homo sapiens, UniProt Q9NUW8)	enzyme activity, inhibitor		100 µM		36%
Nc1nc2cc(CC[C@H]3C[C@@H](n4ccc5c(N)ncnc54)[C@H](O)[C@@H]3O)ccc2cc1Br	lysine methyltransferases, human	enzyme activity, inhibitor		10 µM		≤ 15%
O=C(Nc1cccc(Cl)c1)c1c[nH]cn1	MAPK14	primary fragment screen		0.25 mM, added: ATP 10 µM		33.4%
Cc1ccc(NC(=O)C2C(=O)C(c3ccccc3)c3ccc4c(c32)C(=O)c2ccccc2C4=O)cc1 (stereo not drawn)	mushroom tyrosinase	enzyme activity, inhibitor, spectrophotometry		25 µg/mL, added: L-DOPA substrate		62.12 ± 0.12%
Oc1cc(-c2ccccc2Cl)[nH]n1	MAPK14	primary fragment screen		0.25 mM, added: ATP 10 µM		10.9%
COc1ccc(NC(=O)C2C(=O)C(c3ccccc3)c3ccc4c(c32)C(=O)c2ccccc2C4=O)cc1 (stereo not drawn)	mushroom tyrosinase	enzyme activity, inhibitor, spectrophotometry		100 µg/mL, added: L-DOPA substrate		51.6 ± 1.06%
Cc1ccc2c(c1)C(O)(CC(=O)c1ccc3c(c1)OCCO3)C(=O)N2 (stereo not drawn)	Uncharacterized protein (Trypanosoma brucei brucei, UniProt Q386Q8)	enzyme activity, inhibitor, coupled colorimetric	Trypanosoma brucei	100 µM		0%

Excerpt of the above:
SMILES	target	assay	system	conditions	how to read	inhibition
CCOC(=O)c1cc2c(N)c(C(=O)OC)sc2nc1C	Urea transporter 2 (SLC14A2, Homo sapiens, UniProt Q15849)	urea transport, inhibitor	MDCK expressing SLC14A2	concentration not given, added: 10 µM forskolin		35.4%
Cc1c2c(cc3oc(=O)cc(-c4ccc(O)cc4)c13)C(=O)c1cccc(O)c1C2=O	mushroom tyrosinase	enzyme activity		25 µg/mL, added: L-DOPA		9.64 ± 0.64%
COc1cc(Oc2c(OC)cc(C)c(Br)c2O)c(C(=O)O)c(C)c1O	Gag-Pol polyprotein, reverse transcriptase (gag-pol, Human immunodeficiency virus 1, UniProt P03366)	enzyme activity, inhibitor, PicoGreen fluorescence		10 µM		13.4 ± 0.8%
Oc1cc(-c2ccccc2Cl)[nH]n1	MAPK14	primary fragment screen		0.25 mM, added: ATP 10 µM		10.9%
